{"data": "Published values gathered from unrelated publications", "note": "A part holds a random share of what one study measured. pEC50: −log10 of the molar value.", "sequence of UniProt P49840 (whole entry, looked up)": "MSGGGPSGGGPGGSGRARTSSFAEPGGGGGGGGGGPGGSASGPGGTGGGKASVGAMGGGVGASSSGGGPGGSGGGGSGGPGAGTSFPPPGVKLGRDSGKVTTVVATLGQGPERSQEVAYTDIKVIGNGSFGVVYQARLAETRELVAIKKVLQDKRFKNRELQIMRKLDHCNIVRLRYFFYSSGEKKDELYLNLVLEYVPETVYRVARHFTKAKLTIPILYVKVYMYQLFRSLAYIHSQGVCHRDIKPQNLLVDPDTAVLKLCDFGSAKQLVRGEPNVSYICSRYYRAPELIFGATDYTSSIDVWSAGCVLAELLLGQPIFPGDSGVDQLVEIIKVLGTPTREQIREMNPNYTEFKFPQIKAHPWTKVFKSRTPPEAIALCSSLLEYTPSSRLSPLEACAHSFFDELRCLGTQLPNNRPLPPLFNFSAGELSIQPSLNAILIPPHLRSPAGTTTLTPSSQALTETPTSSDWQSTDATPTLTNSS"}
{"data": "Study 1", "target": "Dual specificity tyrosine-phosphorylation-regulated kinase 1A (DYRK1A, Homo sapiens, UniProt Q13627)", "read-out": "enzyme activity", "action": "inhibitor", "concentration": "0.5 µM", "baseline": "control"}
{"SMILES": "O=C1NC(=O)c2c1c1c3ccccc3[nH]c1n1cncc21", "remaining activity": "89.1%"}
{"SMILES": "O=C1Nc2ccc(Br)cc2/C1=C/c1cc2c([nH]1)CCCC2", "remaining activity": "87.1%"}
{"SMILES": "O=C1NC(=O)c2c1c1c3ccccc3[nH]c1c1[nH]c3cc(Br)ccc3c21", "remaining activity": "84%"}
{"SMILES": "CN1CCN(c2ccc3nc(-c4c(N)c5c(F)cccc5[nH]c4=O)[nH]c3c2)CC1", "remaining activity": "96.5%"}
{"SMILES": "Cc1cc(Nc2cc(N3CCN(C)CC3)nc(Sc3ccc(NC(=O)C4CC4)cc3)n2)[nH]n1", "remaining activity": "98.4%"}
{"SMILES": "CCCNC(=O)Nc1ccc(Oc2ncnc3cc(OC)c(OC)cc23)cc1Cl", "remaining activity": "96.9%"}
{"SMILES": "O=C1Cc2c([nH]c3ccc(Br)cc23)-c2ccccc2N1", "remaining activity": "98.8%"}
{"SMILES": "Oc1cccc(-c2nc(N3CCOCC3)c3oc4ncccc4c3n2)c1", "remaining activity": "94.3%"}
{"SMILES": "COc1cccc(-c2cc(=O)c3ccccc3o2)c1N", "remaining activity": "94%"}
{"SMILES": "COc1ccc(COc2ccc(Cc3cnc(N)nc3N)cc2OC)cc1", "remaining activity": "88.1%"}
{"data": "Study 2", "species": "human", "medium": "microsomes or S9", "concentration": "2 µM", "time": "0.5 h"}
{"Compound": "Cc1cccc(NC(=O)C2CCCN(S(=O)(=O)c3c[nH]c(C(=O)N4CCCC4)c3)C2)c1C (centres unmarked)", "remaining compound [%]": 10.4}
{"Compound": "CS(=O)(=O)NCC1COCCN1C(=O)Nc1ccc2cnccc2c1 (centres unmarked)", "remaining compound [%]": 89.5}
{"Compound": "CN(C)S(=O)(=O)c1cc(C(=O)Nc2ccc(Br)cc2)c(Cl)cc1Cl", "remaining compound [%]": 38.9}
{"Compound": "c1nc2nc[nH]c(N3CCN(Cc4ccc5c(c4)OCO5)CC3)c-2n1", "remaining compound [%]": 20.6}
{"Compound": "O=C1NN=C(c2ccc(OCCN3CCOCC3)cc2)CC1c1ccc(Cl)cc1 (centres unmarked)", "remaining compound [%]": 44.5}
{"Compound": "CN(C)c1cccc2c(S(=O)(=O)NC(CC(=O)O)C(=O)O)cccc12 (centres unmarked)", "remaining compound [%]": 69.2}
{"Compound": "Cc1cccc2c(=O)n(CC(=O)NCC3CC4c5ccccc5C3c3ccccc34)cnc12 (centres unmarked)", "remaining compound [%]": 26.2}
{"Compound": "Cc1ccc2nc(Nc3nc(C)cc(C(F)(F)F)n3)nc(C)c2c1", "remaining compound [%]": 9.94}
{"Compound": "CCc1cc2c(cc3c(=O)n(CC(=O)NCC(C)c4ccccc4)nc(CC)n32)s1 (centres unmarked)", "remaining compound [%]": 0.142}
{"Compound": "CCC(=O)N1CCN(c2cc(-n3cnc(C)c3C)nc(C)n2)CC1", "remaining compound [%]": 92.5}
{"Compound": "CN1CCCc2c(c3cc(F)ccc3n2-c2ccc(F)cc2)C1", "remaining compound [%]": 91}
{"Compound": "CC(C)(C)c1cc(-c2nc3c4c(ncn3n2)CCC4)n[nH]1", "remaining compound [%]": 66.8}
{"Compound": "N#Cc1ccc(C(=O)N2CCC(N(Cc3ccccc3)C(=O)c3ccc(C#N)[nH]3)C2)[nH]1 (centres unmarked)", "remaining compound [%]": 66.1}
{"Compound": "O=C1CCC(=O)N1OCCCOc1ccc2c(c1)CCC2", "remaining compound [%]": 42.7}
{"Compound": "CC(C)CC(=O)Nc1ccc(-n2cnc(C(=O)NCc3ccccc3Cl)c2)nc1", "remaining compound [%]": 94.2}
{"data": "Study 3", "method": "exponential regression of PRP log k'", "medium": "1,9-decadiene/PBS", "pH": "7.4"}
{"SMILES": "CCCC(=O)NCCCCCC(=O)N[C@H](C(=O)N1C[C@H](O)C[C@H]1C(=O)NCc1ccc(-c2scnc2C)cc1)C(C)(C)C", "logD (1,9-decadiene/water)": -4.26}
{"SMILES": "Cc1ncsc1-c1ccc(CNC(=O)[C@@H]2C[C@@H](O)CN2C(=O)[C@@H](NC(=O)CCCCCOC(=O)CC(c2ccccc2)c2ccccc2)C(C)(C)C)cc1", "logD (1,9-decadiene/water)": 1.32}
{"SMILES": "Cc1ncsc1-c1ccc(CNC(=O)[C@@H]2C[C@@H](O)CN2C(=O)[C@@H](NC(=O)CCCCCNC(=O)CC23C[C@H]4C[C@@H](C2)C[C@@H](C3)C4)C(C)(C)C)cc1", "logD (1,9-decadiene/water)": -0.339}
{"SMILES": "CCCN1CC(=O)N[C@@H](CC2CCCCC2)C(=O)N(C)[C@@H](C)C(=O)N[C@@H](CC(C)C)C(=O)N(C)[C@H](C(=O)OCC)CSCC(=O)N[C@@H](CC(C)C)C(=O)N(C)[C@@H](C)C(=O)N[C@@H](CC(C)C)C(=O)N2CCC[C@@H]2C1=O", "logD (1,9-decadiene/water)": 3.2}
{"SMILES": "COCC(=O)OCCCCCC(=O)N[C@H](C(=O)N1C[C@H](O)C[C@H]1C(=O)NCc1ccc(-c2scnc2C)cc1)C(C)(C)C", "logD (1,9-decadiene/water)": -3.31}
{"SMILES": "Cc1ncsc1-c1ccc(CNC(=O)[C@@H]2C[C@@H](O)CN2C(=O)[C@@H](NC(=O)CCCCCNC(=O)C2CCCCC2)C(C)(C)C)cc1", "logD (1,9-decadiene/water)": -2.52}
{"data": "Mixed results"}
{"SMILES": "C[C@@H](NC(=O)Nc1cc2[nH]ncc2c(CO)n1)c1ccccc1", "target": "Glycogen synthase kinase-3 alpha (GSK3A, Homo sapiens, UniProt P49840)", "assay": "target engagement in cells, BRET", "endpoint": "pEC50", "result": 4.89}
{"note": "Excerpt of the above (study 2):"}
{"Compound": "CCc1cc2c(cc3c(=O)n(CC(=O)NCC(C)c4ccccc4)nc(CC)n32)s1 (centres unmarked)", "remaining compound [%]": 0.142}
{"Compound": "CCC(=O)N1CCN(c2cc(-n3cnc(C)c3C)nc(C)n2)CC1", "remaining compound [%]": 92.5}
